Measured values collected from several papers.
Compare with care: the assays were run in different laboratories. ± marks the error that the study gave.

`O=C(O)Cc1ccccc1Nc1c(Cl)cccc1Cl` has an inhibition of 94.3% (paw edema; rat carrageenan paw edema; oral, 12.5 mg/kg, 4 h; baseline: vehicle).
Under “tumour-to-tissue uptake ratio”, `Cc1cc(-c2ccc(NC(=O)[C@H](CCCCNC(=O)CCOCCOCCC(=O)N[C@H](Cc3ccccc3)C(=O)N[C@H]3CSSC[C@@H](C(=O)N[C@H](C(=O)O)[C@@H](C)O)NC(=O)[C@H]([C@@H](C)O)NC(=O)[C@H](CCCCN)NC(=O)[C@@H](Cc4c[nH]c5ccccc45)NC(=O)[C@H](Cc4ccc(O)cc4)NC3=O)NC(=O)CN3CCN(CC(=O)O)CCN(CC(=O)O)CCN(CC(=O)O)CC3)c(C)c2)ccc1N=Nc1ccc2c(S(=O)(=O)O)cc(S(=O)(=O)O)c(N)c2c1O` [gallium-68 labelled] is recorded as 9.81 ± 0.32 (micro-PET; male BALB/c nude mouse, AR42J xenograft, tumour and muscle; intravenous, 7.4 MBq, 4 h; baseline: tumour over muscle).
`O=Cc1c(O)ccc2ccccc12` — result for “log2 fold change”: 2.5 (HUVEC; RNA sequencing, refers to: C9orf64; 75 µM, 24 h; baseline: DMSO).
`C=C1C(=O)OC2C1CCC1(C)OC13CC1OC1(C)C23` (single isomer, unassigned) — result for “tumour growth inhibition”: 59 to 88% (breast cancer RMK-1, outbred white rat; intraperitoneal, maximum tolerated dose, daily, 5 days).
Under “plasma MCP-1 change”, `CC/C=C\C/C=C\C/C=C\C/C=C\C/C=C\CCCCOC(CC)C(=O)O` (stereo not shown) is recorded as -30% (APOE*3Leiden.CETP mice, high-fat/cholesterol diet; dose not given, 20 weeks; baseline: control).
For `O=S(=O)(c1ccccc1)N(CCc1nnc(S)o1)c1ccccc1`, “paw edema inhibition” read 19.4% (rat; 100 mg/kg, 1 h, added: carrageenan).
Under “seminiferous tubule diameter”, `Cc1cc(O)c(C=O)c2c1C(=O)Oc1c(CO)c(O)c3c(c1O2)C(O)OC3=O` (stereo not shown) is recorded as 194 ± 12.4 µm (histopathology; rat, male, streptozotocin-induced diabetes, testis; 5 mg/kg, 9 weeks).
`CCCCCCOC(=O)Cc1c(C)n(C(=O)c2ccc(Cl)cc2)c2ccc(OC)cc12` — result for “latency of nociceptive response”: 10.1 ± 0.38 s (hot plate test; BALB/c mice; 100 mg/kg, 0 min).
For `CC(C)[C@H](NC(=O)CN)C(=O)N[C@@H](CCCCN)C(=O)NCC(=O)N[C@@H](CC(=O)O)C(=O)N[C@@H](CCCCN)C(=O)NCC(=O)N[C@@H](CC(N)=O)C(=O)N1CCC[C@H]1C(=O)NCC(=O)N[C@@H](Cc1c[nH]c2ccccc12)C(=O)N1CCC[C@H]1C(=O)NCC(=O)N[C@@H](C)C(=O)N1CCC[C@H]1C(=O)O`, “maximal cell adhesion” read over 50% (K1735 M4 melanoma, mouse; 100 µg/mL coating, peptide-coated plates; baseline: input cells).
The endoscopic response of `Cc1cc(Nc2cc3ncccc3c(N[C@@H]3C[C@H]4CC[C@@H](C3)N4CCC#N)n2)n[nH]1` is reported as 9% (moderate-severe ulcerative colitis patients; 270 mg, day 28; baseline: patients).
For `CN1Cc2c(Cl)cc(Cl)cc2C(c2cccc(S(=O)(=O)NCCOCCOCCOCCNC(=O)C(O)C(O)C(=O)NCCOCCOCCOCCNS(=O)(=O)c3cccc(C4CN(C)Cc5c(Cl)cc(Cl)cc54)c3)c2)C1` (stereo not shown), “fecal water content” read 56 % by weight (Sprague Dawley rats; oral, 3 mg/kg, 16 h).
`C[C@H]1CN(C(=O)c2cn(-c3ccnc(N)n3)c3cc(C#CC4(O)CCCCC4)ccc23)CCN1`: “mice with lung metastases” 19.5% (A549, mice, lung metastasis model; intravenous, 50 mg/kg daily).
`COc1ccc(C2CC(c3ccc(C)cc3)=Nc3ccccc3S2)cc1OC` (stereo not shown) gave a blood glucose of 101 ± 4.67 mg/dL (oral glucose tolerance test; fasted normal rat, blood; oral, 20 mg/kg, 0 min, added: oral glucose 3 g/kg).
`CCCC[C@H](NC(=O)COCCOCCNC(=O)CN1CCN(CC(=O)O)CCN(CC(=O)O)CC1)C(=O)N[C@H]1CC(=O)NCCCC[C@@H](C(N)=O)NC(=O)[C@H](Cc2c[nH]c3ccccc23)NC(=O)[C@H](CCCNC(=N)N)NC(=O)[C@@H](Cc2ccccc2)NC(=O)[C@H](Cc2c[nH]cn2)NC1=O` [copper-64 labelled] gave a tissue uptake of 0.19 ± 0.01 %ID/g (C57 mice, heart; intravenous, 0.37 MBq, 2 h).
For `COc1cc(O)c(Cl)cc1/C=C/C(=O)c1ccc(C(F)(F)F)cc1`, “total cell count” read “decreased” (mouse LPS acute lung injury, BALF; dose not given; baseline: LPS alone).
`CCOC(=O)C(Cc1cccc(O)c1)OC(=O)C=Cc1ccc(O)c(O)c1C=Cc1ccc(O)c(O)c1` (stereo not shown): “serum CK level” 112 ± 4% (C57 wild-type mice, isoproterenol-induced myocardial ischemia, serum; oral, 10 mg/kg pretreatment for 7 days, added: isoproterenol 3 mg/kg; baseline: normal group).
`CCCCCCCCCC(=O)OCc1cn(-c2ccc(Cl)cc2)nn1` has a clotting time of 48.3 ± 0.7 s (aPTT; human plasma; 10 µM).
Under “total soluble Aβ reduction”, `CCC1CC2C(C)=CC3C(=O)CCCC3C=CC(C)=CC2C(=O)O1` (stereo not shown) is recorded as 18.7% (dot blot; 5XFAD transgenic mouse, hippocampus RIPA-soluble lysate; oral gavage, 30 mg/kg/day, 5 days; baseline: vehicle).
`C=C(c1cc(F)c(C(=O)O)c(F)c1)c1cc2c(cc1C)C(C)(C)CCC2(C)C` — result for “log2 fold change”: -0.22 (RNA sequencing, refers to: Arl11 mRNA; rat, brain; dose not given, 24 h, single dose; baseline: vehicle).
`CC(C)C1=C(O)C(=O)C2=C(C=C[C@H]3C(C)(C)CCC[C@]23C)C1=O` gave an ORAC of 0.291 Trolox equivalents (oxygen radical absorbance capacity, fluorometric).
`C[C@@H](NC(=O)Cc1ccc(Cl)c(SC2C(=O)CC(c3c(Cl)cccc3Cl)CC2=O)c1)c1cccc2ccccc12` (stereo partly shown) — result for lactate level: “decreased” (C57BL/6 mice, B16-F10 melanoma allograft, tumour; intratumoral, 50 mg/kg daily for 7 days, 6 h after last dose).
For `CC(=O)[O-].O.O.O.O.[Ni+2].[O-]c1ccc(Br)cc1C=NCCN1CCOCC1`, “inhibition zone diameter” read 29 mm (Escherichia coli; 20 µL of 100 µM per disc).
Under “tumour weight inhibition”, `CC(C)OC(=O)[C@H](CO)NCc1cc(Cl)c(OCc2cccc(-c3ccccc3)c2Br)cc1OCc1cccnc1` is recorded as 67.9% (hPD-L1 MC-38 tumour, humanised hPD-1 C57BL/6 mouse; oral, 10 mg/kg × 21).
Under sEPSC frequency, `COc1cc(C(=O)OCCCN2CCCN(CCCOC(=O)c3cc(OC)c(OC)c(OCc4ccc([N+](=O)[O-])cc4)c3)CC2)cc(OC)c1OC` is recorded as “decreased” (patch clamp; spinal lamina IIo neurons, STZ-treated mouse, spinal cord slices; 3 µM, 3 min).
Under phospho-p65 level, `CCOP(=O)(OCC)OCCCCOC(=O)C(C)c1ccc(CC(C)C)cc1` (stereo not shown) is recorded as “inhibited” (immunofluorescence; rat, AOM-induced colon cancer, colon; dose not given, 40 weeks).
Under “latency of nociceptive response”, `CCCOC(=O)Cc1c(C)n(C(=O)c2ccc(Cl)cc2)c2ccc(OC)cc12` is recorded as 14.7 ± 1.44 s (hot plate test; BALB/c mice; 50 mg/kg, 120 min).
`Cc1sc2ncn(CC(=O)N3CCCC3)c(=O)c2c1-c1cccc(Br)c1` — result for “γ3 conductance level area”: 3% (NMDA receptor, mouse; single-channel current, outside-out patch; cortical neurons; 50 µM, added: Ca2+ 1.25 mM).
With `[64Cu+2].c1cnc(CNCc2ccc(CN3CCCN4CCNCCCN(CC4)CC3)cc2)nc1` the tissue uptake was 2.54 ± 0.32 %ID/g (CXCR4; NOD/SCID mouse, U87 and U87-stb-CXCR4 xenografts, stomach; iv, 450 min, ex vivo).
The hemolysis of `NS(=O)(=O)c1ccc(NC(=O)NN[C@@H]2O[C@H](CO)[C@@H](O)[C@H](O)[C@@H]2O)cc1` is reported as 5.05% (rabbit erythrocytes; 64 µg/mL, 3 h; baseline: complete lysis).
`OCc1cnn(-c2ccccc2)n1` gave a clotting time of 52 ± 0.9 s (aPTT; human plasma; 10 µM).
For `Cc1cc2c(cc1C1(c3ncc(C(=O)O)cn3)CC1)C(C)(C)CCC2(C)C`, “log2 fold change” read -0.36 (RNA sequencing, refers to: Inmt mRNA; rat, brain; dose not given, 24 h, single dose; baseline: vehicle).
`CC(=O)c1cnc(N)nc1N1CC[C@H]1c1nn2ccc(Cl)c2c(=O)n1-c1ccccc1` has an inhibition of over 90% (anti-IgD B cell activation, refers to: CD86; rat, blood; oral, 1 mg/kg, up to 8 h).
`O=C([O-])CN1CCN(CC(=O)[O-])CCN(CC(=O)NC[C@H]2CC[C@H](C(=O)N[C@H](Cc3cnc4ccccc4c3)C(=O)NCCCC[C@H](NC(=O)N[C@@H](CCC(=O)O)C(=O)O)C(=O)O)CC2)CCN(CC(=O)[O-])CC1.[64Cu+2]` gave an optimal cut-off of 66 CPM (Youden index, refers to: prostate cancer; prostate cancer patients, biopsy cores).
For `S=c1n(CN2CCN(c3ccccn3)CC2)nc(C23CC4CC(CC(C4)C2)C3)n1-c1ccccc1`, “paw oedema inhibition” read 33.52 ± 0.23% (rat carrageenan paw oedema; intraperitoneal, 20 mg/kg, 4 h after carrageenan; baseline: vehicle control).
With `COc1ccc(-n2cc(CO)nn2)cc1` the clotting time was 44.5 ± 0.6 s (aPTT; human plasma; 1 µM).
`CN(Cc1ccc(/C=C/C(=O)Nc2ccccc2N)cc1)CC12CC3CC(CC(C3)C1)C2` — result for immobility score: “no effect” (forced swim test; rat; i.p., 0.025 mg/kg, 7 days; baseline: vehicle).
For `[64Cu+2].c1ccc(CNCc2ccc(CN3CCCN4CCNCCCN(CC4)CC3)cc2)nc1`, the tissue uptake was 92.8 ± 20.5 %ID/g (CXCR4; NOD/SCID mouse, U87 and U87-stb-CXCR4 xenografts, liver; iv, 120 min, ex vivo).
`CC[C@H]1[C@@H](O)[C@@H]2[C@H](CC[C@]3(C)[C@@H]([C@H](C)CCOS(=O)(=O)[O-])CC[C@@H]23)[C@@]2(C)CC[C@@H](O)C[C@@H]12.[Na+]`: “plasma total cholesterol” 7.2 ± 0.4 mmol/L (ob/ob NASH mice, plasma; oral, 10 mg/kg once daily, 8 wk).
`CC(C)(O)c1ccc(N2Cc3c(ccnc3-c3ccc(F)cc3OCC(F)(F)F)C2=O)cc1`: “time of maximal reduction” 16 h (refers to: glucosylceramide; mouse, cerebral cortex; oral, 10 mg/kg).
For `CCOCn1cc(F)c(=O)n(C(=O)c2cccc(C(=O)Oc3cc(OC(=O)c4cc(OC(=O)CC)nc(OC(=O)CC)c4)c(Cl)cn3)c2)c1=O`, “tumour growth inhibition” read “inhibited” (nude rat, KM12C xenograft; oral, 100 to 112.5 µmol/kg once daily, 14 days).

Some of these lines once more:
For `CCOCn1cc(F)c(=O)n(C(=O)c2cccc(C(=O)Oc3cc(OC(=O)c4cc(OC(=O)CC)nc(OC(=O)CC)c4)c(Cl)cn3)c2)c1=O`, “tumour growth inhibition” read “inhibited” (nude rat, KM12C xenograft; oral, 100 to 112.5 µmol/kg once daily, 14 days).
`CC(=O)c1cnc(N)nc1N1CC[C@H]1c1nn2ccc(Cl)c2c(=O)n1-c1ccccc1` has an inhibition of over 90% (anti-IgD B cell activation, refers to: CD86; rat, blood; oral, 1 mg/kg, up to 8 h).
`CCCCCCCCCC(=O)OCc1cn(-c2ccc(Cl)cc2)nn1` has a clotting time of 48.3 ± 0.7 s (aPTT; human plasma; 10 µM).
